Assay results pooled from the literature.
Protocols differ between the studies behind these lines. Numbers after ± are the reported error.

With `Nc1cc(F)ccc1NC(=O)c1ccc(CNC(=O)/C=C/c2cccnc2)cc1` the AUC(0-tau) was 6760 ng·h/mL (Japanese patients, plasma; oral, 40 mg, cycle 1 day 1).
For `C[C@]12CC[C@@H]3c4ccc(O)cc4CC[C@H]3[C@@H]1C[C@@H](O)[C@@H]2O`, “maximum serum concentration” read 0.0437 ng/mL (GC-MS; breast cancer women on NSAI, serum; vaginal, 0.03 mg daily, 8 h, day 28).
The EC20 of `Sc1ncnc2nc[nH]c12` is reported as > 400 µM (cytochrome c release, ELISA; BALB/cByJ female mouse liver mitochondria; 30 min; relative to: alamethicin maximal release).
For `Cc1cc(C(=O)NC(C)(C)COc2cccc3c2C(N)=NS(=O)(=O)N3)cc(C)n1`, the bioavailability was 0.15% (female Sprague-Dawley rat, plasma; oral, 100 mg/kg, single dose).
The half-life of `N#Cc1cn(C(=O)C2CC2)c2cccnc12` is reported as > 240 min (chemical stability; aqueous buffer; pH 7.4).
`CS(=O)(=O)n1cc2c(n1)CN([C@H]1CO[C@H](c3cc(F)ccc3F)[C@@H](N)C1)C2`: “concentration at 168 h” 26.5 nM (healthy male human, plasma; oral, 50 mg once weekly, day 1, fasted, geometric mean).
`O=C(c1cccnc1-c1ccncc1)N1CCC(O)(Cc2ccccc2)CC1` gave an AUCinf of 2840 ng·h/mL (healthy human, plasma; oral, 300 mg once daily, day 14, arithmetic mean).
`CC[C@H](C)[C@H](NC(=O)[C@H](Cc1ccc(O)cc1)NC(=O)[C@@H](NC(=O)[C@H](CCCNC(=N)N)NC(=O)[C@@H](N)CC(=O)O)C(C)C)C(=O)N[C@@H](Cc1cnc[nH]1)C(=O)N1CCC[C@H]1C(=O)N[C@@H](Cc1ccccc1)C(=O)O` has an intact peptide of > 70% (HPLC; NRK-52E nuclear extract; 0.5 nM, 120 min, pH 7.4, 37 °C).
For `O=C(O)c1cccc(CN2CN(C3CCCCC3)C3(CCN(CCCC(=O)c4ccccc4)CC3)C2=O)c1`, the rearing counts was 3 counts (Sprague Dawley rat female; 100 mg/kg/day, 4 to 8 min of assessment).
For `CC(C)C[C@H](NC(=O)[C@H](CCc1ccccc1)NC(=O)CN1CCOCC1)C(=O)N[C@@H](Cc1ccccc1)C(=O)N[C@@H](CC(C)C)C(=O)[C@@]1(C)CO1`, the Vss was 942 L (LC-MS; human, plasma; intravenous push, 15 mg/m^2).
With `CC1=C2Cc3cc(ccc3O)C(=O)O[C@H](C(C)(C)Br)CC[C@](C)(O)[C@H](Br)CC[C@]2(C)[C@@H](Br)CC1` the intrinsic clearance was 0.52 ± 0.06 mL/min/kg (human liver S9 fraction; 10 µM, 24 h, without UDPGA).
The elimination half-life of `CC(=O)N[C@@H](Cc1ccccc1)C(=O)N[C@H]1CCCNC(=O)[C@H](CCCNC(=N)N)NC(=O)[C@H](Cc2c[nH]c3ccccc23)NC(=O)[C@@H](CC2CCCCC2)NC(=O)[C@@H]2CCCN2C1=O` is reported as ~20 min (two-compartment model; C57BL/6J mouse, plasma; 1 mg/kg single dose).
Under “intact radiolabelled complex”, `O=C([O-])CN1CCN(CC(=O)[O-])CCN(CC(=O)[O-])CCN(CC(=O)[O-])CC1.[67Ga+3]` is recorded as 97.5 ± 0.5% (RP-TLC; murine plasma; 3 h, 37 °C, 5% CO2).
For `O=C(Nc1ccc(N2C(=O)[C@@H]3[C@H](C2=O)[C@@H]2C=C[C@H]3C2)c(Cl)c1)c1ccccn1`, the AUC(0-6 h) was 0.848 µM·h (rat, hepatic portal plasma; oral, 10 mg/kg).
For `CCCC[C@H](NC(=O)CN1CCC(NC(=O)CN2CCN(CC(=O)O)CCN(CC(=O)O)CCN(CC(=O)O)CC2)CC1)C(=O)N[C@H]1CC(=O)NCCCC[C@@H](C(N)=O)N(C)C(=O)[C@H](Cc2c[nH]c3ccccc23)N(C)C(=O)[C@H](CCCNC(=N)N)N(C)C(=O)[C@@H](Cc2ccccc2)NC(=O)[C@H](Cc2c[nH]cn2)N(C)C1=O` [gallium-68 labelled], “tumour to tissue ratio” read 1.79 ± 0.88 (C57BL/6J mice with B16-F10 melanoma, tumour over liver; intravenous, 1 h, together with: MC1R inhibitor BMS 470539 0.5 mg co-injected).
For `COc1cccc2c1C(=O)c1c(O)c3c(c(O)c1C2=O)C[C@@](O)(C(C)=O)C[C@@H]3O[C@H]1C[C@H](N)[C@H](O)[C@H](C)O1`, the elimination half-life was 36.6 ± 0.6 min (BALB/c mouse, plasma; intravenous, 10 mg/kg).
The EC20 of `CO[C@H]1/C=C/O[C@@]2(C)Oc3c(C)c(O)c4c(O)c(c(/C=N/N5CCN(C)CC5)c(O)c4c3C2=O)NC(=O)/C(C)=C\C=C\[C@H](C)[C@H](O)[C@@H](C)[C@@H](O)[C@@H](C)[C@H](OC(C)=O)[C@@H]1C` is reported as > 800 µM (mitochondrial swelling; BALB/cByJ female mouse liver mitochondria; 30 min, together with: succinate + rotenone; relative to: CaCl2 maximal swelling).
For `S=C(NCCCc1c[nH]cn1)NCCCN(Cc1ccc(Cl)c(Cl)c1)c1ccc(Br)cn1`, the concentration was 1680 ng/mL (male C57BL/6 mouse, plasma; intraperitoneal, 30 mg/kg, 4.98 min).
`CCc1cc2c(C(=O)c3cc(Br)c(O)c(Br)c3)c(O)ccc2o1` has a microsomal CLint of 70.2 µL/min/mg (metabolic stability; Sprague-Dawley rat, liver microsomes; 1 µM, pH 7.4).
The EC20 of `C1CCC(C(CC2CCCCN2)C2CCCCC2)CC1` (stereo not shown) is reported as 14.8 µM (mitochondrial swelling; BALB/cByJ female mouse liver mitochondria; 30 min, together with: succinate + rotenone; relative to: CaCl2 maximal swelling).
`CN1CCN(c2ccc3nc(-c4c(N)c5c(F)cccc5[nH]c4=O)[nH]c3c2)CC1` has an AUC of 1530 ng·h/mL (patients, plasma; oral, 300 mg, day 1, AUC 0-24 h minimum concurrent dosing, together with: gemcitabine and capecitabine).
`CC12CCC(CC1=O)C2(C)C` (stereo not shown) — result for “detoxification rate ratio”: 7.6 fold (headspace GC; liver microsomes; 15 min, pH 7.4; relative to: pygmy rabbit over mountain cottontail).
The Ctrough of `Cn1c(-c2ccc(C(N)=O)cc2F)nnc1C(C)(C)Oc1c(F)cc(Cl)cc1F` is reported as 0.443 to 0.652 ng/mL (young non-Japanese healthy subjects, plasma; oral, 0.2 mg once daily, 3 mg loading day 1, min-max, last dosing day).
With `COc1ccc(C=CC(=O)O)cc1OS(=O)(=O)O` the mean concentration was 12.9 nM (human, fasted baseline, cerebrospinal fluid).
The AUC(0-t) of `CCCCC1(CCCC)CN(c2ccccc2)c2cc(SC)c(OCC(=O)N[C@@H](C(=O)NCC(=O)O)c3ccccc3)cc2S(=O)(=O)C1` is reported as 3.02 ng·h/mL (human, plasma; oral, 20 mg once daily, day 1, geometric mean).
The EC20 of `Nc1c(Br)cc(Br)cc1CN[C@H]1CC[C@H](O)CC1` is reported as > 400 µM (cytochrome c release, ELISA; BALB/cByJ female mouse liver mitochondria; 30 min; relative to: alamethicin maximal release).
With `Cc1cc(Nc2cc(N3CCN(C)CC3)nc(Sc3ccc(NC(=O)C4CC4)cc3)n2)[nH]n1` the end-of-infusion concentration was 0.274 to 7.63 µM (patients, plasma; continuous intravenous infusion, 8 to 96 mg/m2/h, 24 h, mean across doses).
`CC[C@H](C)[C@H](NC(=O)[C@H](CS)NC(=O)[C@H](CCCNC(=N)N)NC(=O)[C@H](CCCNC(=N)N)NC(=O)[C@H](CC(N)=O)NC(=O)[C@H](CCCNC(=N)N)NC(=O)[C@H](CS)NC(=O)[C@@H](NC(=O)[C@@H](NC(=O)[C@@H](NC(=O)[C@H](CS)NC(=O)[C@H](CCCCN)NC(=O)[C@@H](N)CCCNC(=N)N)C(C)C)[C@@H](C)CC)C(C)C)C(=O)N[C@H](C(=O)N[C@@H](CC(C)C)C(=O)N[C@@H](CS)C(=O)N[C@@H](CCCNC(=N)N)C(=O)O)[C@@H](C)CC` — result for “single disulfide form”: 0% (LC-MS; PBS; 0.1 mg/mL).
`CC(=O)N[C@H](CSSC[C@H](N)C(=O)O)C(=O)N[C@H](C)C(=O)N[C@H](CCCNC(=N)N)C(=O)N[C@H](CCCNC(=N)N)C(=O)N[C@H](CCCNC(=N)N)C(=O)N[C@H](C)C(=O)N[C@H](CCCNC(=N)N)C(N)=O` gave a rate ratio of 18 fold (human whole blood; relative to: SAPC formation over reverse).
The EC20 of `Cc1nc(Nc2ncc(C(=O)Nc3c(C)cccc3Cl)s2)cc(N2CCN(CCO)CC2)n1` is reported as 168 µM (cytochrome c release, ELISA; BALB/cByJ female mouse liver mitochondria; 30 min; relative to: alamethicin maximal release).
`Nc1cc(-c2ccccc2)ccc1Cn1cncc1CNc1ccc(-c2nc3ccccc3s2)c(-c2ccccc2)c1` gave an AUC(0-5 h) of 24700 ng·h/mL (female BALB/c mice, plasma; oral, 50 mg/kg single dose).
`CN(CCC#N)C1CCN(C(=O)Cn2cc(NC(=O)c3cnn4cccnc34)c(-c3cc(Cl)ccc3OC(F)F)n2)CC1` — result for “oropharyngeal, stomach and mouth deposition”: 49.1% (gamma scintigraphy; human; inhalation, 1 mg, 99mTc-labelled; relative to: emitted dose).
`O=c1c(-c2ccc(O)cc2)coc2cc(O)cc(O)c12` has an EC20 of > 200 µM (mitochondrial swelling; BALB/cByJ female mouse liver mitochondria; 30 min, together with: succinate + rotenone; relative to: CaCl2 maximal swelling).
`O=C(O)CNC(=O)c1ccccc1`: “free concentration ratio” 53 (human hemodialysis patients, plasma ultrafiltrate; pre-treatment; relative to: hemodialysis over normal subjects).
`COc1cccc(CN)c1O` gave a Vd/F of 486 L/kg (male C57BL/6 mouse, plasma; intraperitoneal, 200 mg/kg, single dose).
The EC20 of `OC(Cn1cncn1)(Cn1cncn1)c1ccc(F)cc1F` is reported as > 400 µM (mitochondrial swelling; BALB/cByJ female mouse liver mitochondria; 30 min, together with: succinate + rotenone; relative to: CaCl2 maximal swelling).
For `CCOc1ccc(Cc2cc([C@@H]3S[C@H](CO)[C@@H](O)[C@H](O)[C@H]3O)c(OC)cc2C)cc1`, the AUC(0-last) was 2350 ± 601 ng·h/mL (Japanese type 2 diabetes patients, plasma; oral, 5 mg single dose, eGFR below 30 mL/min/1.73 m^2).
Under “Vz/F (geometric mean)”, `CNC(=O)c1ccc(-c2cnc3ncc(Cc4ccc5ncccc5c4)n3n2)cc1F` is recorded as 227 L (human, severe hepatic impairment (Child-Pugh C), plasma; oral, 200 mg single dose).
`NCCCC[C@@H]1NC(=O)[C@@H](Cc2c[nH]c3ccccc23)NC(=O)[C@H](c2ccccc2)NC(=O)[C@@H]2C[C@@H](OC(=O)NCCN)CN2C(=O)[C@H](Cc2ccccc2)NC(=O)[C@H](Cc2ccc(OCc3ccccc3)cc2)NC1=O` gave an alpha half-life of 132 ± 36 min (radioimmunoassay; healthy human male volunteers, plasma; subcutaneous, 600 µg).
`Cc1nc2cccc(OCC(C)(C)C(=O)NC(C)C)c2c(N)c1C(=O)O` gave a Cmax of 62.4 ± 25.9 ng/mL (Sprague-Dawley rat, female, plasma; oral gavage, 30 mg/kg, day 1).
For `COc1cccc(-c2ccc(NC(=O)C3=C(C(=O)O)CCC3)c(F)c2)c1`, the AUC(0-24h) was 166000 ng·h/mL (human, male, plasma; oral, 50 mg once daily, day 13, geometric mean, pre-dosed).
Under “absorption rate constant”, `colistin methanesulfonate` is recorded as 0.878 ± 0.342 h⁻¹ (one-compartment PK model; rat; i.p., 20 mg/kg colistin base activity).
The EC20 of `CCOC(=O)c1ccc(O)cc1` is reported as > 400 µM (mitochondrial swelling; BALB/cByJ female mouse liver mitochondria; 30 min, together with: succinate + rotenone; relative to: CaCl2 maximal swelling).
For `CCCCC[C@H](O)CC[C@@H]1[C@H]2Cc3cccc(OCC(=O)O)c3C[C@H]2C[C@H]1O`, the Clast was 0.02 ± 0.02 ng/mL (LC-MS/MS; Japanese pulmonary arterial hypertension patients, plasma; inhalation, 54 µg four times daily, week 12).
For `COc1cccc(N2CCN(C3=Nc4c(F)cccc4[C@H](CC(=O)O)N3c3cc(C(F)(F)F)ccc3OC)CC2)c1`, the clearance was 133 ± 41.4 mL/min (UHPLC-MS/MS; healthy women, plasma; intravenous infusion, 240 mg single dose, 30 min infusion, HPβCD formulation).
`C#C[C@]1(CO)O[C@@H](n2cnc3c(N)nc(F)nc32)C[C@@H]1O` gave an AUC(0-168 h) of 0.713 µM·h (human, plasma; oral, 10 mg once weekly, week 1).

Repeated from above:
For `CC(C)C[C@H](NC(=O)[C@H](CCc1ccccc1)NC(=O)CN1CCOCC1)C(=O)N[C@@H](Cc1ccccc1)C(=O)N[C@@H](CC(C)C)C(=O)[C@@]1(C)CO1`, the Vss was 942 L (LC-MS; human, plasma; intravenous push, 15 mg/m^2).
The EC20 of `CO[C@H]1/C=C/O[C@@]2(C)Oc3c(C)c(O)c4c(O)c(c(/C=N/N5CCN(C)CC5)c(O)c4c3C2=O)NC(=O)/C(C)=C\C=C\[C@H](C)[C@H](O)[C@@H](C)[C@@H](O)[C@@H](C)[C@H](OC(C)=O)[C@@H]1C` is reported as > 800 µM (mitochondrial swelling; BALB/cByJ female mouse liver mitochondria; 30 min, together with: succinate + rotenone; relative to: CaCl2 maximal swelling).
The elimination half-life of `CC(=O)N[C@@H](Cc1ccccc1)C(=O)N[C@H]1CCCNC(=O)[C@H](CCCNC(=N)N)NC(=O)[C@H](Cc2c[nH]c3ccccc23)NC(=O)[C@@H](CC2CCCCC2)NC(=O)[C@@H]2CCCN2C1=O` is reported as ~20 min (two-compartment model; C57BL/6J mouse, plasma; 1 mg/kg single dose).
`CC(=O)N[C@H](CSSC[C@H](N)C(=O)O)C(=O)N[C@H](C)C(=O)N[C@H](CCCNC(=N)N)C(=O)N[C@H](CCCNC(=N)N)C(=O)N[C@H](CCCNC(=N)N)C(=O)N[C@H](C)C(=O)N[C@H](CCCNC(=N)N)C(N)=O` gave a rate ratio of 18 fold (human whole blood; relative to: SAPC formation over reverse).
The EC20 of `C1CCC(C(CC2CCCCN2)C2CCCCC2)CC1` (stereo not shown) is reported as 14.8 µM (mitochondrial swelling; BALB/cByJ female mouse liver mitochondria; 30 min, together with: succinate + rotenone; relative to: CaCl2 maximal swelling).
